Earlier results that unrelated publications cite.
Numbered parts are unrelated; values within a part may stem from several laboratories.

Study 1
Organism: Toxoplasma gondii
Observed: parasite growth
Tested at: concentration not given
Setting: drug repurposing screen
SMILES | activity class
COc1ccccc1N1CCN(CCCNc2cc(=O)n(C)c(=O)n2C)CC1.Cl | inactive
COCCOC(=O)C1=C(C)NC(C)=C(C(=O)OC(C)C)C1c1cccc([N+](=O)[O-])c1 (stereo not drawn) | inactive
CC(C)NCC(O)COc1ccc(CC(N)=O)cc1 (stereo not drawn) | inactive

Single results of other studies
Compound | target or system | test | system | setting | scale | measurement | result
CN1CCN(c2cnc3c(C4CCN(C(=O)c5ccc(OC(F)(F)F)cc5N)CC4)ncnc3c2)CC1 | MAPK7 | enzyme activity | – | added: 250 µM ATP | – | IC50 | 35 nM
C[C@@H](Oc1ccc(S(C)(=O)=O)cc1C(=O)N1C[C@@H]2C[C@]2(c2cc(C(F)(F)F)on2)C1)C(F)(F)F | – | – | human | oral, 25 mg single dose, added: Meal, high-fat, ~1000 kcal | relative to: fasted state | AUC increase | 26%
Cc1cc(C)c(-n2ccn3nc(-c4cccnc4)cc23)cc1NC(=O)c1cc(C#N)cc(S(F)(F)(F)(F)F)c1 | TEK | biochemical activity | – | – | – | IC50 | 0.45 nM
COC(=O)[C@H](c1ccccc1Cl)N1CCc2sccc2C1 | CYP2C19 | – | – | – | – | Km | 0.05 µM
O=C(Cc1ccccc1)Nc1nnc(N2C[C@H]3C[C@@H]2CN3c2cccnn2)s1 | GLS2 | enzyme activity | – | – | – | IC50 | > 30000 nM
COc1nc2ccc([C@@](O)(c3ccccc3)C3CCN(C(C)=O)CC3)cc2c(Cl)c1Cc1ccc(-n2cccn2)cc1 | RORC (human) | cellular activity | – | – | – | IC50 | 30 nM

Excerpt of the above (single results of other studies):
Compound | target or system | test | system | setting | scale | measurement | result
COC(=O)[C@H](c1ccccc1Cl)N1CCc2sccc2C1 | CYP2C19 | – | – | – | – | Km | 0.05 µM
